Experimental data collected from several papers.
Every numbered part comes from another study and shows a few of its results, in no order. Changes are numbered by the printed parent chain.

Series 1 — method: DHFR PCA, deep sequencing; matrix: yeast; together with: (+)-ABA 4.8 µM; baseline: wild-type fitted maximum; reading: higher = stronger binding
Target: ABI1, truncated, D143A, DHFR fusion (Arabidopsis thaliana)
Setting: methotrexate growth selection, single substitutions
Starting sequence: PYL1, truncated, DHFR fusion (Arabidopsis thaliana); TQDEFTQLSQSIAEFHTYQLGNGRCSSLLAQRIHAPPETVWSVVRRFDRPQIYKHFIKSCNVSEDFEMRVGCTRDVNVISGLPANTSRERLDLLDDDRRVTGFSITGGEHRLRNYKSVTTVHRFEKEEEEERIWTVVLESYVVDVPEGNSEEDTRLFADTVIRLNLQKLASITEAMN; partner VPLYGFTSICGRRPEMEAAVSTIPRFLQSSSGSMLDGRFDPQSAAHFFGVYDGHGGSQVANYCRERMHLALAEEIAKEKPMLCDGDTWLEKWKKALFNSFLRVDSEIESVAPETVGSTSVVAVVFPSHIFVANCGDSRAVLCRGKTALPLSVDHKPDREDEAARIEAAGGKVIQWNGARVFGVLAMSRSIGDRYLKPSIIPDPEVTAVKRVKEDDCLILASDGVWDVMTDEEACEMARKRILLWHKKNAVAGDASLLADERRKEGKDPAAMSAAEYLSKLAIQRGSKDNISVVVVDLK
| Variant | relative binding score |
| --- | --- |
| K58H | 55.5% |
| I105E | -22.2% |
| N61W | 62.9% |
| V78I | 81.5% |
| E38V | 3.66% |
| E129G | 91.1% |
| F124P | 8.2% |
| E151T | 70.8% |
| Q31N | 9.02% |
| V137C | 3.79% |
| V76F | -2.3% |
| A158Y | 1.92% |
| E125P | 81.9% |
| K126S | 92.4% |
| K54I | 4.11% |
| R32E | 70.4% |
| E4P | 63.4% |
| R88H | 79.6% |

Series 2 — method: protein binding microarray; molecule type: double-stranded DNA, one strand shown; matrix: in vitro; tested at: not given; baseline: not given; reading: higher = stronger binding
Target: Histone acetyltransferase KAT6A, winged helix 2, GST fusion (KAT6A, Homo sapiens, UniProt Q92794, residues 85-181)
Setting: 8-mer, flanks averaged, mean of 2 arrays, mostly near background
Residues (chain): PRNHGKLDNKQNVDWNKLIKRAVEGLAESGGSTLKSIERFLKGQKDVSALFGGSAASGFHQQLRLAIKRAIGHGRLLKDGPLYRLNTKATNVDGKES
| Sequence | E-score |
| --- | --- |
| TCAGCTAA | 0.00629 |
| AGGATACT | -0.145 |
| AGTGATCA | -0.0749 |
| AAAGGTAA | -0.0808 |
| ATCTCCCA | -0.0581 |
| CGAGCTAG | -0.0144 |
| TCAGTAGA | -0.0187 |
| CAGGAAGC | 0.133 |
| AAATCATT | -0.00709 |
| CTCGACTC | -0.06 |
| CCCAAACC | 0.114 |
| AGGAACAA | -0.0738 |
| GCGCACAC | -0.0171 |
| CCCAAGTA | -0.0668 |
| AACGCATG | -0.0208 |
| GCGCCGGA | 0.145 |
| AAACCCGC | 0.176 |
| CGTCCGAA | 0.0808 |
| CAGCGTGC | 0.188 |
| CTAGCGCC | 0.139 |
| CCTGAATC | -0.0266 |
| AAGAACAG | 0.00907 |
| GATGGCCC | 0.0553 |
| CTCATCAA | -0.117 |
| GAATCATA | 0.0309 |

Series 3 — target: CCND1, cyclin fold, Cln2 fusion (human); method: yeast growth competition, sequencing; matrix: yeast; setting: strong parent motif; baseline: not given; reading: higher = stronger binding
Starting sequence: INSM1 docking peptide (human); PKAIRKLHFEDEV
| Variant | normalised enrichment score |
| --- | --- |
| L7S | -0.0222 |
| L7M | 0.65 |
| E12S | 4.09 |
| K6T | 2.26 |
| A3H | 0.67 |
| E12V | 3.93 |
| H8C | 5.89 |
| E10S | 3.58 |
| H8Y | 4.83 |
| A3V | 2.45 |
| K2N | 4.33 |
| L7K | 0.141 |
| R5A | 1.15 |
| L7T | 0.196 |
| E10N | 3.75 |
| E12M | 4.33 |
| K6N | 1.85 |

Series 4 — method: RNA Bind-n-Seq; molecule type: RNA; matrix: in vitro; tested at: 365 nM; baseline: no-protein control; reading: higher = stronger binding
Target: RNA binding protein fox-1 homolog 2, RRM domain, GST-SBP tag (RBFOX2, Homo sapiens, UniProt O43251-10, residues 100-194)
Setting: natural RNA segment, single round, ends assumed
Shared flanks, not repeated: GGGAGUUCUACAGUCCGACGAUC … UGGAAUUCUCGGGUGCCAA
| Sequence | RBNS enrichment (R) |
| --- | --- |
| GGCAGUGCCUACUUUGGAAGAUGCUGCAGCCUGCGAGGGGAUCUGCUGGGGCUUCCCCUUCGCCACACAGAAGCCUGCUUAGUGCUUUCUGCACCAGACAACCUGUUGAG | 0.746 |
| UGAUCUGUUGUAAUAUCAGUUACAGUGGCAGUAUUGACAAUAAGAAACAGUUUAACAGAAAAAUGAAAUUUAAGCACAAAAAAUUUAAGAGAUUUUAUGUUUAAAAUGGC | 0.57 |
| UUCCUUUUUAUAUAAAAGUAUAUUGUUUAAAACAGUAGCUAUAGCCAUUAACCAAAGGACAGAUGUGUAUAUGUGUGUGUGUGUAUGUGUGUGUAUGUAUAUGAUACAUA | 0.998 |
| GCUCUUUCAAUUGAGGUGGUUCUCAUUCUUGCUUCUCUGUGUCCCCCAUAGGCUAAUACCCCUGGCACUGAUGGGCCCUGGGAAAUGUACAGUAGACCAGUUGCUCUUUG | 0.375 |
| UCAAGACUUUGUGUCUAAUGUUUUUCAAACUUCCCAUUAGAUCACUGCUUCAAUACAAAACCAGCAGAAAUAUAAAAAAAAAAAAAUACUUCAGUUAUUGGUGUCCAUGA | 0.898 |
| GACCUGUGCUGUCACUGGGCAUAGGACAGCGGCAUCACGGUUGCAUUCCCAUUGGACUCAUGCACCUCCCGGAUGGUUUUUGUUUUUUUCGGGGGUUCUUUGGGGUUUGU | 2.41 |
| GAGGGAACCUCUAAAUAAUUUCAGGGGUAGGGGAGAUGUUGUCAAUAGGAAAUGGGAUAAAAUAUCAAGAGACAAUGAAAACACUGCCUUGACAUGAGGACCAGCAAGUU | 1.1 |
| UUAGCCCAGUGUGUCAGCGUCCAUUGUUACUCAUCACUGCAUUGUUGGGCAAUUAGUUUGUAAUUUGUUUUAGGCAAUCACUAUAAAUUAUAAUUAUGGACACUGCAUCA | 1.69 |

Series 5 — method: RNA Bind-n-Seq; molecule type: RNA; matrix: in vitro; tested at: not given; baseline: input RNA pool; reading: higher = stronger binding
Target: RING finger protein unkempt homolog, zinc fingers 1-6, GST-SBP tag (UNK, Homo sapiens, UniProt Q9C0B0, residues 30-357)
Setting: RNA with constant flanks, human and mouse sites, ends assumed
Shared flanks, not repeated: GGGAGUUCUACAGUCCGACGAUC … CAACAGAGGAUUGAGCAUCA
Residues (chain): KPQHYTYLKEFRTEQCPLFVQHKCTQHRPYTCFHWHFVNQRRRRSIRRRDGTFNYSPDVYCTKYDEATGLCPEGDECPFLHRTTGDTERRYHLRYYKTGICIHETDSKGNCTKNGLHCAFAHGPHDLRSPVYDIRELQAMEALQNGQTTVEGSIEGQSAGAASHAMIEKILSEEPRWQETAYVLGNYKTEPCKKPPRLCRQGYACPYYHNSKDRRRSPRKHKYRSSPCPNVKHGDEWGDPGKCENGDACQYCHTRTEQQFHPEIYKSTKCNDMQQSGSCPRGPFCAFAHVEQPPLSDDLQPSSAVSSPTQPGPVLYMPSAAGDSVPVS
| Sequence | bound/input enrichment |
| --- | --- |
| UCAGACAUGGACUACAUCCAGACCGACGCCAUCAUCAACUAUGGAAACUCGGGAGGCCCGUUAGUAAACCUGGACGGUGAAGUGAUUGGAAUUAACACUUUGAAAGUGACAGCUGGAAUC | 0.38 ratio |
| CAUCGAAUUGGAAGAACUGCUCGCAGUACCAAAACAGGCACAGCAUACACUUUCUUUACACCUAAUAACAUAAAGCAAGUGAGCGACCUUAUCUCUGUGCUUCGGGAAGCUAAUCAAGCA | 0.0703 ratio |
| CCGUAGGGGCACAGAGAGCUUAGAUCACCUUGCUGGUCUCUCACAUUAUUACCAUGCUGAUACUAGCUAUAGACACUUCCCCAAGUCUGAAAAGUAUAGCAUCAGUAGACUCACCCUGGA | 0.416 ratio |
| AAGCCAGAGACAGAGGCUGCAAGAGCACAGCCCACUCCUUCCUCAUCAGCCACACAGAGCAAGCCCACACCAGUUAAGCCAAACUAUGCCCUGAAGUUCACCCUGGCUGGCCACACCAAA | 0.221 ratio |
| UCAUUGUCCUUUCUCCAGUUUUUGUUCCAGAAUAAAAGGAAAUAUUUUAAAAGCCACGUUAUAGGACCUAAAAAUCUGAUUUCCGUACCAGUUAAAUUGGUAGCAUCACUGUUACUGAUA | 0.24 ratio |
| AGGGCGCAGUUAUGGGUCGCAAGAAGAAGAAGCAGCUCAAGCCGUGGUGCUGGUAUUGUAACAGAGAUUUUGAUGAUGAGAAGAUCCUUAUACAGCACCAAAAAGCAAAGCAUUUUAAAU | 0.289 ratio |
| AAUGGGAAAACGGUAUAUGCACCAUCCCCAAAUUCAGAUGAUUUCAACCGUGAAUCUCCUAGUUAUCCAUCUCCUAAGCCACCAACCAGUAUGUUCGCUAGCACUUUCUUUAUGCAAGAU | 2 ratio |
| GGGGGCCACGGGGAAGAUAGGCCGGAGCCCUUAAGCCCCAAAGAGAGCAAGAAGAGGAAGCUGGAGCUGAGCCGGCGGGAGCAGCCGCCCACAGAGCCAGGCCCUCAGAGUGCCUCAGAG | 0.305 ratio |

Mixed results
| Substance | target | test | test system | setting | scale | measurement | result |
| --- | --- | --- | --- | --- | --- | --- | --- |
| PhoQ, residues 284 288 289 292 302 303 AGCYAI | PhoP, residues 12 14 15 18 19 NQAHL (Escherichia coli, UniProt P23836) | Sort-seq, refers to: YFP reporter | E. coli | PhoQ-PhoP variant library, together with: 10 µM Mg2+ | baseline: high Mg2+ state, higher = stronger signaling | fold induction | 0.975 |

Excerpt of the above (series 2):
| Sequence | E-score |
| --- | --- |
| CGAGCTAG | -0.0144 |
| AAGAACAG | 0.00907 |
| CTCATCAA | -0.117 |
| AGTGATCA | -0.0749 |
| TCAGTAGA | -0.0187 |
| GCGCCGGA | 0.145 |
| GATGGCCC | 0.0553 |
| AGGATACT | -0.145 |
| AGGAACAA | -0.0738 |
| CCCAAACC | 0.114 |
| CTAGCGCC | 0.139 |
